Experimental data from different studies.
Each numbered part is a random draw from the data of one study; scales do not carry over between parts.

Block 1 — method: RNA Bind-n-Seq; form: RNA; sample: in vitro; concentration: 365 nM; reference: no-protein control; reading: higher = stronger binding
Target: RNA binding protein fox-1 homolog 2, RRM domain, GST-SBP tag (RBFOX2, Homo sapiens, UniProt O43251-10, residues 100-194)
Notes: natural RNA segment, single round, ends assumed
Shared flanks, not repeated: GGGAGUUCUACAGUCCGACGAUC … UGGAAUUCUCGGGUGCCAA
Construct (chain): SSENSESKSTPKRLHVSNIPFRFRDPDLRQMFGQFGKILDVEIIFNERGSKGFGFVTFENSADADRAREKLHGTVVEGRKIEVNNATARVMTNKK
| Sequence | RBNS enrichment (R) |
| --- | --- |
| GGUAUUGAGGGGAGUCAGCAUGUAUUUGCAGCUUAUGUUCAUGGGCAUAUAUAAACAUGUGUAUGUGCAAUAUAUCGAUAUAGAAUUCUGCCAAAAAUCAAGGUUUAAAA | 1.2 |
| UCAUGGAGGACUAAAGCCUAAGUCCUUUUCACUUUUCCUCCAUCUGAAGGUAGGUGAGUUCAUCCUCUUCAUGGUAAUGCUGUUUUACCAAGACUUUAUAGCAGAUGGAC | 0.224 |
| CACUCUUUAUUCUGAGACAGGGUCUCCCCAUGUUGCCCAGGCUGGUCUUGAACAACUGCCUCACUCUAUAGCCCAAGUUAUCUAGGUCUGAUAGUUGGGAUAAAGGGCUC | 0.25 |
| GUUGUGCAGUUUCAUAGAUGGGUCAGGAGGUGGACAAGUUGGGGCCAGAGAUGAUGGCAGUCCAGCAGCAACUCCCUGUGCUCCCUUCUCUUUGGGCAGAGAUUCUAUUU | 0.567 |
| GCAUUGGAAACAGCCGCACUAUGGCUUCUUUGAGACCCUAUUUCCUUUUCUGGUUGUGGACAAGGCUGCCUUAGGACUUUGCUAACCCAAUAAAACCUUUAGAUUCUGGU | 0.448 |
| UCUCUGGUAAUCAUGAACCUUUCUCCUAGGGUGUUUGUUUUGUUUUCAUAAUAAAAAGGGAAAGAAGUUGUGUCUGUGUGGUGCUCUUUGCUGCAAUGCCUCUUUGUAAG | 1.11 |
| UUUGUGUGAGGCUCAGAGCAAAUGAACAAGUGCCAUUCAAGGGUUAGAAACUGCUCAGCCACAGGGUCCCAGUGUCUGAGUCUGGAAGAGUCUUUAGAGAUUUGUUCACU | 0.283 |
| AGCACAAUGUGACCCAACUUAAAAUUUGGGGGAAAAAGAAUGCAGGAGUGAAAUAACCAAGUCAAAACCAUGUACUAUCUCCUUGGGGGUUAGGGAUGCUAAGAAGAGCC | 0.888 |
| ACCAAAAGCUAAGGAUUGCCACCCAGCAUUCCAAGCAGACUUGUUUCCUAAAAGCAUCCUUCAUCUGCAUUCCAUCCUGGGUCAGCAUCAACCACAACAUAGCAGGCAUU | 2.8 |
| UAAGCUUGCGUAGAAUUGCAGGUCUCUGUACGGGCCAGUUUCUCUGCCUUCUUCCAGGAUCAGGGGUUAGGGUGCAAGAAGCCAUUUAGGGCAGCAAAACAAGUGACAUG | 0.832 |
| AUCUAAAGUUUGUUAGAUAGCUGCAUGUGGCUUUUUUAAAAAAGCAACAGAAACCUAUCCUCACUGCCCUCCCCAGUCUCUCUUAAAGUUGGAAUUUACCAGUUAAUUAC | 0.426 |
| ACUGUUUGAGGAAAAAUUACCUGUCUUGACUUCCUGUGUUUAUCAUCUUAAGUAUUGUAAGCUGCUGUGUAUGGAUCUCAUUGUAGUCAUACUUGUUUUCCCCAGAUGAG | 0.933 |

Block 2 — method: RNA Bind-n-Seq; form: RNA; sample: in vitro; concentration: not given; reference: input RNA pool; reading: higher = stronger binding
Target: RING finger protein unkempt homolog, zinc fingers 1-6, GST-SBP tag (UNK, Homo sapiens, UniProt Q9C0B0, residues 30-357)
Chain of UniProt Q9C0B0 (30-357, looked up): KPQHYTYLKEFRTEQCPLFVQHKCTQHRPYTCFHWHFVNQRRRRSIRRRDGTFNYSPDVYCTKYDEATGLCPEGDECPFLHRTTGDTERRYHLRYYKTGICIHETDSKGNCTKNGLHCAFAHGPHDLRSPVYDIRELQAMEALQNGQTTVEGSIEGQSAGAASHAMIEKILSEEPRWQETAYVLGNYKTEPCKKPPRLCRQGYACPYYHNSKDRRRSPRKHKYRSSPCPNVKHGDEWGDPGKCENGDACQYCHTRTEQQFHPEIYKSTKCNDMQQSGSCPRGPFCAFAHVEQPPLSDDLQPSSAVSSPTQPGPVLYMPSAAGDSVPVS
Notes: RNA with constant flanks, human and mouse sites, ends assumed
Shared flanks, not repeated: GGGAGUUCUACAGUCCGACGAUC … CAACAGAGGAUUGAGCAUCA
| Sequence | bound/input enrichment |
| --- | --- |
| UCCCUAAAGAUCAUCGGGAGACUUCAUUGGAUUGACAGAGAAAAGCUUCGAAGUUUCAUCUUAGCGUGUCAAGAUGAAGAGACGGGAGGAUUUGCAGACAGACCAGGAGAUAUGGUGGAU | 0.267 ratio |
| GACGCUAGUGAUGGGACAGUACGACUUCGUGGACUACCAUUUGGUUGCAGCAAAGAGGAAAUAGUUCAGUUCUUUCAAGGGUUGGAAAUCGUGCCAAAUGGGAUAACAUUGACGAUGGAC | 0.261 ratio |
| GAAUAAUGAAAAAUCUAGAUCAAUUCUUCAAUUUGAUUGAACUGUUCAGCCUUUUCAAGAUUUCUUUAUUUACAAAUGAUUACAUUUAAAUGAAUGUACAUUCUUCUCACUGACUUUGGU | 0.174 ratio |
| AAACUGAUCCGCUAUGUCACAGCCUUUGAUUUCUUCCUGGCAGCCUGUGAGAUCAUCUUUUGUUUCUUUAUCAUUUACUAUGUGGUGGAAGAGAUAUUGGAAAUUCGGAUUCACAGACUG | 0.182 ratio |
| GAGACGGUGGAGGAAGAGAAGAGCCAGUCAGAUGUGGAUUUUCAGUCGUGCGAGUCUUGUAGCAGCAGCGAGAAAGCAGAAAAUGAGAGUGGCUCCAAAGGCUUUCCUGAGGACAGCAAU | 0.31 ratio |
| GUGGCUGAGUACGAUGCCUAUUUUGAGGAGGUUAAACAAGAGAUCAAUCAAAGGCUGACCCUUAGUGACUUCCUGAUCAAGCCCAUUCAGAGAAUAACAAAGUACCAGCUGCUACUCAAG | 0.161 ratio |
| AACAAAAUGAUGUACAUGACUGUGAAUUUUUAUACCGCUCAUUUUUUAAAGGGCUGCCUUUUUAAUUUCCCAUAGUGUUGUGGCGUGAACAGGGCAGAACCUUCUUUUGUAAAACACAAC | 0.158 ratio |
| GUAGCCCUUGCAGCAUGGCUGACCAACUGACUGAAGAGCAGAUUGCAGAGUUCAAAGAAGCUUUCUCACUAUUUGACAAGGACGGGGAUGGGACAAUAACAACAAAGGAGCUGGGGACAG | 0.405 ratio |
| CCCUUAACUGGGAAGUACCUGCCACGUAGGGCAUUUCUGCUGCCUAUUUCCAGCCAGCGGCUGCAUGGUUUGAAGUUCCUCCGUUGUGGUCAGAGGAACUCUGGUGUUUGGUUCCCUGCU | 0.151 ratio |
| GUCAGCAAGACAUCUGUAUAGAUUCUGCUUCAUCCGUGAGAGAGAAUAAGCAACCUGAAGGUUUGGAAUUAAAACAAGGAAAAGGGGAAGAUAGUGAUGUACUCAGUAUAAAUGCAGAUG | 0.761 ratio |
| CCUACAAUAAUGAAAACCUACAGGAAUUUUUUUAUUUUUCAUUUUCUUCUUAGGCAUAGUUAGUCUUUUUCCCCCAGGCAGAUGAUUCUGAGUGUGGGAGUGUGUCUGCACAUGUUAAAA | 2.66 ratio |

Block 3 — method: universal PBM; form: double-stranded DNA, one strand shown; sample: in vitro; concentration: not given; reading: higher = stronger binding
Target: Sal-like protein 4, full length isoform B (SALL4, Homo sapiens, UniProt Q9UJQ4-2, residues 1-616)
Notes: 8-mer, flanks averaged, mean of replicates
Residues (chain): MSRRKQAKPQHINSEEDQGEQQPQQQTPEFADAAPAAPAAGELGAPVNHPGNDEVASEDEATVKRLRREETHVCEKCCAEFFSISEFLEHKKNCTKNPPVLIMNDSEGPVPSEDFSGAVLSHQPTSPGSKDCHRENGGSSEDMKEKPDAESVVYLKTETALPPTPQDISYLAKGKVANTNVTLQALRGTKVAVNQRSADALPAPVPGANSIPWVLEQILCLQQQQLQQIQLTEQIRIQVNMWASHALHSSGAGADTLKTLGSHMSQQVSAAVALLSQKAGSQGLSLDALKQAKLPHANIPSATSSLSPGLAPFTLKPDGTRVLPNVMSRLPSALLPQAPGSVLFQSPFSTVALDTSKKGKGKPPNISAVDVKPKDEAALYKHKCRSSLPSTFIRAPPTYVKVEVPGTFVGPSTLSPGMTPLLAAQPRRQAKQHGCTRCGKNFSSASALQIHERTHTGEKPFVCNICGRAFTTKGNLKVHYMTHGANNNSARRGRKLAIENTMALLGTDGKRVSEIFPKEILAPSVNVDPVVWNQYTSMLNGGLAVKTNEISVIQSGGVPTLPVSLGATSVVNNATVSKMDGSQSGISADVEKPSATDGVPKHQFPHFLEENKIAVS
| Sequence | E-score |
| --- | --- |
| TAGGCGCA | -0.187 |
| GCATGGAA | -0.065 |
| TCAAAAAA | 0.253 |
| ACCTGAAT | 0.219 |
| ATACAACG | 0.137 |
| CAAAGAAC | 0.0857 |
| CTCTCGCA | -0.17 |
| ATGTACGA | 0.149 |
| CATGTCAA | 0.109 |
| TAAAGATA | 0.202 |
| ATCCCGAT | 0.0996 |
| AGTTATCC | -0.0339 |
| ACCAGGCG | -0.293 |
| CCTCTACC | -0.217 |
| CACAGGCG | -0.121 |
| ATTTTTCG | 0.302 |
| CGGGACGC | -0.28 |
| GATCAGTA | 0.0998 |
| TGAGTTAA | 0.162 |
| ATCCATAA | 0.359 |
| CACGCGCC | -0.246 |
| CCACCGTA | -0.133 |
| ACGGGCAA | -0.0899 |
| GGTACACC | -0.234 |
| GCTACTGA | -0.0806 |

Block 4 — method: protein-binding microarray; form: double-stranded DNA, one strand shown; sample: in vitro; concentration: not given; reading: higher = stronger binding
Target: Myc proto-oncogene protein, bHLH-zipper, MAX partner unstated (MYC, Homo sapiens, UniProt P01106, residues 368-449)
Chain of UniProt P01106 (368-449, looked up): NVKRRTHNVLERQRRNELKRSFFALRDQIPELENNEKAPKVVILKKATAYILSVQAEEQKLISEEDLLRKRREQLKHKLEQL
Notes: k-mer, scored over probes, only values ≥0.25
| Sequence | E-score |
| --- | --- |
| ACGCATCT | 0.295 |
| ACGCGCTG | 0.291 |
| AACGTGTC | 0.395 |
| GAGCACGA | 0.333 |
| CGTGGCCC | 0.395 |
| CGCCCCGC | 0.335 |
| CACACGCA | 0.347 |
| CCAAGCAC | 0.3 |
| ACGCGTGG | 0.455 |
| ACGTCATG | 0.259 |
| ACATGACC | 0.26 |
| AGCACACG | 0.381 |
| TACACGCA | 0.303 |
| ACGAGGCG | 0.42 |
| ACGTGAGG | 0.346 |
| CGACCCAC | 0.26 |
| CGAGGCAC | 0.305 |
| CCCCGTGC | 0.372 |
| CACGCAAA | 0.258 |
| CCGCACCG | 0.284 |
| CACGCCTG | 0.347 |

Block 5 — method: protein binding microarray; form: double-stranded DNA, one strand shown; sample: in vitro; concentration: not given; reference: not given; reading: higher = stronger binding
Target: Histone acetyltransferase KAT6A, winged helix 1, GST fusion (KAT6A, Homo sapiens, UniProt Q92794, residues 1-85)
Notes: 8-mer, flanks averaged, mean of 2 arrays, mostly near background
Target sequence (chain): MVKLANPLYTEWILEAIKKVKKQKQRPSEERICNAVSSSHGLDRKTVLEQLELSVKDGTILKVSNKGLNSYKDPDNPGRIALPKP
| Sequence | E-score |
| --- | --- |
| AGTTTATG | -0.209 |
| GATAGCCA | -0.0843 |
| CTACGGAA | 0.0871 |
| ACTCATTA | -0.0539 |
| CAAGCGTA | 0.0428 |
| CCGATCCG | 0.313 |
| GAATCCCA | -0.365 |
| CGCATGAA | 0.0736 |
| ATCTCCTG | -0.202 |
| AGCGCCAA | 0.104 |
| AGACAGAA | -0.23 |
| ACCCGCCT | 0.337 |
| ATGGGAAT | -0.184 |
| AGTGCCGG | 0.308 |
| AGGCACCA | -0.108 |
| AGGCGTAA | 0.0161 |
| CAAGTTCG | -0.122 |
| CTTGATAC | -0.214 |
